Measurements from different studies.
Parts stem from different laboratories: compare values within a part only.

Series 1
Target: Prothrombin, mature alpha-thrombin (F2, Homo sapiens, UniProt P00734)
Technique: aptamer microarray, sandwich
Molecule type: DNA with 2'F-ANA
Sample: in vitro
Tested at: 200 nM
Notes: whole 15-mer aptamer, many near background
With: Cy3 exosite-II aptamer, 400 nM
Reading: higher = stronger binding
Sequence: GGTTGGTGTGGTTGG
Modification | mean fluorescence intensity
2'F-ANA at 3 4 5 6 7 8 10 11 12 14 | 49.5 a.u.
2'F-ANA at 1 3 4 6 7 9 11 12 14 15 | 66.5 a.u.
2'F-ANA at 1 4 5 6 7 10 11 12 13 14 | 45.3 a.u.
2'F-ANA at 1 4 6 10 12 13 | 50.6 a.u.
2'F-ANA at 1 4 6 8 10 12 13 | 57.6 a.u.
2'F-ANA at 1 2 5 9 11 15 | 52.3 a.u.
2'F-ANA at 1 2 3 5 8 12 13 14 15 | 55.3 a.u.
2'F-ANA at 1 5 7 10 14 15 | 55.2 a.u.
2'F-ANA at 8 9 10 12 13 | 185 a.u.
2'F-ANA at 1 4 6 8 9 10 11 12 13 | 56.8 a.u.
2'F-ANA at 1 2 5 6 7 11 13 15 | 56 a.u.
2'F-ANA at 2 3 4 6 7 8 9 12 | 812 a.u.
2'F-ANA at 1 2 4 5 6 7 8 10 12 14 15 | 47.7 a.u.

Series 2
Target: Histone acetyltransferase KAT6A, winged helix 2, GST fusion (KAT6A, Homo sapiens, UniProt Q92794, residues 85-181)
Technique: protein binding microarray
Molecule type: double-stranded DNA, one strand shown
Sample: in vitro
Tested at: not given
Notes: 8-mer, flanks averaged, mean of 2 arrays, mostly near background
Reference: not given
Reading: higher = stronger binding
Target sequence (chain): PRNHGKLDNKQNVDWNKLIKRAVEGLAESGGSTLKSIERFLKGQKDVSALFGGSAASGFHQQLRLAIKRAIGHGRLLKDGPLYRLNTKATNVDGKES
Sequence | E-score
CGTCTTCC | -0.111
ATATAAAT | 0.226
AGCTCCAT | 0.00812
CATCCAAC | -0.0649
ACGGGACG | 0.0189
CCCACCTC | -0.0475
GCTATGAC | -0.0374
CAGCGAAA | 0.0839
CGGACAGA | 0.0435

Series 3
Target: Fragile X messenger ribonucleoprotein 1, C-terminal low-complexity region (Fmr1, Mus musculus, UniProt P35922)
Technique: RNA Bind-n-Seq
Molecule type: RNA
Sample: in vitro
Tested at: 200 nM
Notes: whole 134-nt RNA, ends assumed
With: 150 mM KCl
Reference: input library
Reading: higher = stronger binding
Sequence | log2 enrichment
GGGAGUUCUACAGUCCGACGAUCGCAGGAAGUAAAAACAAAUGGAAAUGCUUCGGAUAGUGGCAGGGGCGGGGGUUGCUAAGGAAAGGGUGGGAUGGGAGUGGGUAAAGAGUUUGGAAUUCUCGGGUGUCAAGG | 0.265
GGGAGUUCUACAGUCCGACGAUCCAAGUCCUGUGCUACACAUCGUAUGUACCGAAUCGGGGAGGGGUUUGGGGAGGGGAAAGUAUUAUGUUACGCCGUUCGGAUCUGCACUUCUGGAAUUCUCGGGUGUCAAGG | 1.45
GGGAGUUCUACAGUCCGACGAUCUUCUCUGCCGGCUCAGAGGAGAGGAGACGCCGUGAGCGGGACGACCAGAUGUACCGAGAGCGGCUGCGCACCUUGCUGGUCAUCGCGGUUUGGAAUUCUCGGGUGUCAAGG | -1.84
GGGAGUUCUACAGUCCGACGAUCAAGUCCUGUGCUACACAUCGUAUGUACCGAAUCGGGAAAAGGGAAAAGGAAAAGGGGAAAGUAUUAUGUUACGCCGUUCGGAUCUGCACUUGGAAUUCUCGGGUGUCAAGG | 0.0596
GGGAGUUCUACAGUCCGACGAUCGUCCUGUGCUACACAUCGUAUGUACCGAAUCGGGGUUUUUGGGGAAAGGGGUUUGGGGAAAGUAUUAUGUUACGCCGUUCGGAUCUGCACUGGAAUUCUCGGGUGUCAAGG | 0.649
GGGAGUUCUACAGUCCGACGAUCGCAGGAAGUAAAAACAAAUGGAAAUGCUUCGGAUAGUGGCAGGGGUGGGGGUUGCUAAGGAAAGGGUGGGGUGGGAGUGGGUAAAGAGUUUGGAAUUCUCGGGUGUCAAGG | -0.247
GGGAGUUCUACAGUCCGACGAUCCACAGACAACACGCACCCACACAGACACAGAGGGAAGGGGUUGGGAUGGGGACAGGGUGCACAGCAGGGCGGGGUAGGACCCCAGCCUCUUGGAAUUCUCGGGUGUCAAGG | 1.15
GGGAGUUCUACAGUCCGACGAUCCCUCAAGUCCUGUGCUACACAUCGUAUGUACCGAAUCGGUUUUUGGUGGAGGAAAGUAUUAUGUUACGCCGUUCGGAUCUGCACUUCCAGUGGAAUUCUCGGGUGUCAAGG | 0.301
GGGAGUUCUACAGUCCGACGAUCAAGUCCUGUGCUACACAUCGUAUGUACCGAAUCGGGUUUGGGGUUUGGGGUUUGGGGAAAGUAUUAUGUUACGCCGUUCGGAUCUGCACUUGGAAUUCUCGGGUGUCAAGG | 0.61

Further values, each from its own experiment
Molecule | target | assay | test system | conditions | how to read | quantity | result
PhoQ, residues 284 288 289 292 302 303 TTSMTC | PhoP, residues 12 14 15 18 19 NQFFI (Escherichia coli, UniProt P23836) | Sort-seq, refers to: YFP reporter | E. coli | PhoQ-PhoP variant library, with: 10 µM Mg2+ | reference: high Mg2+ state, higher = stronger signaling | fold induction | 16.6

Some of these lines once more (series 1):
Modification | mean fluorescence intensity
2'F-ANA at 1 5 7 10 14 15 | 55.2 a.u.
2'F-ANA at 1 3 4 6 7 9 11 12 14 15 | 66.5 a.u.
